Published values collected from several papers.
A part holds a random share of what one study measured.

Study 1 — method: RNA Bind-n-Seq; form: RNA; medium: in vitro; tested at: 365 nM; baseline: no-protein control; direction: higher = stronger binding; quantity: RBNS enrichment (R)
Target: RNA binding protein fox-1 homolog 2, RRM domain, GST-SBP tag (RBFOX2, Homo sapiens, UniProt O43251-10, residues 100-194)
Notes: natural RNA segment, single round, ends assumed
Constant ends, left off below: GGGAGUUCUACAGUCCGACGAUC … UGGAAUUCUCGGGUGCCAA
Construct (chain): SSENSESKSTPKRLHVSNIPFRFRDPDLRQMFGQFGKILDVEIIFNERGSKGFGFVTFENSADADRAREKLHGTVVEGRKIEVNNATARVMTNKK
GGCCGAUGGGAGUCUCCCUCCGACUCCAGAUAUGAACAGGGCCCAGGCCUGGAGCGUUUGCUGUGCCAGGAGGCGGCAGCUCUUCUGGGCAGAGCCUGUCCCCGCCUUCC: 0.793
GUAUGGUGUGGUGUUUGUAGGCUGUGGGGUCUGGCUGUGUGGCCAAGGUGAAUAGCACAGGUUAGGGUGUGUGCCACACCCCAUGCACCUCAGGGCCAAGCGGGGGCGUG: 2.66
GUGACUUUGAGGCCUACGGGAAAAUCUGUGACCCAGGGCUGACCUCGUUUGAGCCUGAAGCACUGGGCAACCUGGUUGAAGGGAUGGACUUCCACAGAUUCUACUUCGAG: 0.223
ACUCGGAUAAUUUCUCCUAAGAGAAUUCCUUCAACAAAAGUGGAUCACUCAGACAGCACUUCCACGGACAAGUCCCUGUCAAAACUGACCCAUGCUGGUGGAGAACAGAC: 0.766
AGGAGAUGGAGAGAAAUACAUCGAUUGAGGCAUUAGAUGGCUCCCAUUGCACUGCUCGCAGCUCCCUGCUCAGACUUCACCCCAAGCUGAAGCCUCCAGAGGGACAGCAG: 0.339
GCUGAGUGGAGCACCCACCCAAACACCAGACCACACUGUCCUCCGAAAAUAAACAUUUUAUACAGACUUGUGUCUUUGCUUCUGUCUUCCCCGUGGGCACUUGGCCAUUG: 1.1
GGUUUGAAUUCCUUUCUUUAAAGAUGUAGUGUCCCUUUCGGUAAGAAUGGAUCCUUUAUUUUUAAAAUAAUCAAAAUUUGAAUAAUUGCUACACAUGGUUGCUAUUUAUU: 0.643
UAUUUAUAUCUACAUUUCCUUCCAGCUGAGUCUUCAAAUUUAGCAUUAUUUUGACACUUUUAAUUUUCAUUUAACAAUGGAUUAGAAAAAUAUUUUGGUCUAGCCACUAA: 0.585
GGAGCAUUUUUUUACAAUUUGGAUCUCUGCCAGUAUUGUUAAAAUUUUAUUAAAAUCAUCCAGCACCAAGACGUGUUUGCUUUUAUAUUUAUUCUAUAUGCCCAGCUCUG: 0.372
UCUUAAAUUUCCUGAUAUUUAUGUACAUAUAGUAAGAUAACUGAUAAGUCUUAGAUGUUUGAGUGAAGCACUGCUACAAUAGUAAUAGUUUGGCUAGAUCUUAAAGCUGU: 0.367
GAUUGUACUUGGAUAAAAAACAAUAAACUUUCACUAUAAAGCCAAUGAGAUUCAUAGGCUGUACAGUAUGGGCCCUUUUCUCUUAUUUUCUUACAUUUAUUUUUAUUGUU: 0.599
GUGAGAGCCAGAUCUAGAGAGUCAGAACCCGGGGGUCUUGAGAUAGGAGGCAAAGCAGCUAUGGAAGGGCUUUUGCUGGUUAAUCAUUUCUGAGGUGAAAGACCUUCUUC: 1.26

Study 2 — method: protein binding microarray; form: double-stranded DNA, one strand shown; medium: in vitro; tested at: not given; baseline: not given; direction: higher = stronger binding; quantity: E-score
Target: Histone acetyltransferase KAT6A, both winged helices, GST fusion (KAT6A, Homo sapiens, UniProt Q92794, residues 1-181)
Notes: 8-mer, flanks averaged, mean of 2 arrays, mostly near background
Residues (chain): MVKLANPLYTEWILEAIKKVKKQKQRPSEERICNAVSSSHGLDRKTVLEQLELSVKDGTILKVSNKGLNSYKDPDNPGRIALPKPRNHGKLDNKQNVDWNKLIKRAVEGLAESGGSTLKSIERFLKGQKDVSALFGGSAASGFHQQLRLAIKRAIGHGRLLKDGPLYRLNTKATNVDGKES
GCGTCTAC: 0.235
CTGCGCAG: 0.131
ATATAAAT: -0.00517
ATTAGAAT: -0.192
AGGTTACG: 0.0278
GGAGACAC: -0.153
CTAAATTA: -0.107
AGGCGCAG: 0.0474
CGCCACAA: 0.0669
AGCCTCGC: 0.141
CACTATCG: 0.0725
ACCTAAGA: -0.199
AGCGGAAT: 0.186
CCCTTCGA: -0.091
AGTGATAC: -0.105
CCGATAAC: 0.121
AGGATAGA: -0.15
CAATAGCC: -0.184
AAATACGG: 0.0832
ACCGACTC: 0.0485
CCGAAGGA: 0.05

Study 3 — method: RNAcompete; form: RNA; medium: in vitro; tested at: 20 nM; notes: 7-mer, probes averaged, single round; baseline: mean of 7-mers; direction: higher = stronger binding; quantity: 7-mer Z-score
Target: PABPC1L2, full length, GST fusion (mouse, UniProt A0ABA7IW68)
Construct (chain): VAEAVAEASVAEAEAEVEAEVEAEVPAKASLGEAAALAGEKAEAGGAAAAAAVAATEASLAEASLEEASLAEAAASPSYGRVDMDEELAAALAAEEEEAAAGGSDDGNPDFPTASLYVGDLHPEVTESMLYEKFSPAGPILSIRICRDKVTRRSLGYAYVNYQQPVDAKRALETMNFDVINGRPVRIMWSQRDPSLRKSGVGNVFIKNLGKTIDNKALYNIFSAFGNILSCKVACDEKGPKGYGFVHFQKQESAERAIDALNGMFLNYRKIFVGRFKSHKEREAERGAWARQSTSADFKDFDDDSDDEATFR
UGAGACG: -0.0536
GACUCAU: -0.162
GACCUUC: -0.34
CCGCCUU: -0.295
UACUACG: -0.204
CCGAAUA: 0.0134
UACGUAU: -0.222
CUGAGAG: 0.000733
GAUCUCA: -0.168
AGAAAUG: 0.657
CGAGAAG: 0.0986
GAACUUA: -0.0699
ACUAAGA: 0.186
UCGGAUU: -0.139
AUGCUCG: -0.206
UCUGCAG: -0.255
CCCCGUG: -0.44
UCACCUU: -0.335
UGACCCG: -0.304
AACGUGA: -0.108
AACUGGC: 0.227
GUUGAGU: -0.313
UAAGCGG: 0.0334
GCAAAAG: 1.29
ACAGGCG: 0.318

Other studies, line by line
PKRAKRKLYTSEISSP — enrichment score (Saccharomyces cerevisiae; mating pheromone growth arrest, pooled competitive growth deep sequencing; peptide, no Cln2 overexpression; peptide tiling library; direction not given): -0.156

Repeated from above (study 1):
GGAGCAUUUUUUUACAAUUUGGAUCUCUGCCAGUAUUGUUAAAAUUUUAUUAAAAUCAUCCAGCACCAAGACGUGUUUGCUUUUAUAUUUAUUCUAUAUGCCCAGCUCUG: 0.372
UAUUUAUAUCUACAUUUCCUUCCAGCUGAGUCUUCAAAUUUAGCAUUAUUUUGACACUUUUAAUUUUCAUUUAACAAUGGAUUAGAAAAAUAUUUUGGUCUAGCCACUAA: 0.585
GAUUGUACUUGGAUAAAAAACAAUAAACUUUCACUAUAAAGCCAAUGAGAUUCAUAGGCUGUACAGUAUGGGCCCUUUUCUCUUAUUUUCUUACAUUUAUUUUUAUUGUU: 0.599
GUGAGAGCCAGAUCUAGAGAGUCAGAACCCGGGGGUCUUGAGAUAGGAGGCAAAGCAGCUAUGGAAGGGCUUUUGCUGGUUAAUCAUUUCUGAGGUGAAAGACCUUCUUC: 1.26
UCUUAAAUUUCCUGAUAUUUAUGUACAUAUAGUAAGAUAACUGAUAAGUCUUAGAUGUUUGAGUGAAGCACUGCUACAAUAGUAAUAGUUUGGCUAGAUCUUAAAGCUGU: 0.367
